Experimental data of several laboratories.
Every numbered part comes from another study and shows a few of its results, in no order. Positions count from the first letter of the parent shown.

Study 1
Target: RNA binding protein fox-1 homolog 2, RRM domain, GST-SBP tag (RBFOX2, Homo sapiens, UniProt O43251-10, residues 100-194)
Technique: RNA Bind-n-Seq
Form: RNA
Medium: in vitro
Tested at: 365 nM
Setting: natural RNA segment, single round, ends assumed
Reference: no-protein control
Direction: higher = stronger binding
Endpoint: RBNS enrichment (R)
All sequences stand within: GGGAGUUCUACAGUCCGACGAUC … UGGAAUUCUCGGGUGCCAA
Construct (chain): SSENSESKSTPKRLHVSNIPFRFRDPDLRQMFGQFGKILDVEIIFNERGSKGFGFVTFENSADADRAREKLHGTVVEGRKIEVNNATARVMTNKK
AGGGUGUGGCAUGGCUCAGUCUGGCCCCCUUGAUUACCGGCCUAGCCCCUGCUCACAUCACAGCUGUCUGAAGAACAGUGAGGUGGAGUGCCUAGAACUCCCGUGGUGGU: 0.249
GUGUCAAUAUCAUUGAUUUCUUUUUCAUAUGAAGAUCCACAUGCAUUGUAAGAUUGUGAAGAUAUAUAAAAUUGAUGAAUUAAGAGAAAUUAUGCCACUUUCCUAUAGUU: 1.03
UGACAGACUGGAAUAUUUCUUAGGCAAUGCAAGGCAAACAUUCACAUGAUCCACCGUUUUAACACCUCAGUCUUUGGUAGGAUGAAAUAAUAAAUGAAGAUGCCUAAAAU: 0.409
GAGACGGACCUCAGUGUGUUUUAUAUUGUCUGGUGUUAAGAUGAUAAAUUACUUUGUGAUUACAAGCAAAUUUUCUAUUUGACAAAGCCCUUGGUGGAGUCCAAAUGAUU: 0.666
AGACUCUUAACGCAGGAAGGACUUCAAACUUCUGCUGAGACCUUGGGGUCAAGGAACAUUUCAUUGGUUUUUUUUGUCCACCCCCAUCUCCCUUGCUCAUUUGGAUGCGU: 0.445
GUUGGAGGAUGAGAGCUCCUGAGGGGCAGAGGAGCAGAGAUGCAUCAGCUCGCCUGGGACUGGCUCUGUGAUAAAAAGACCCCUCCCGCUGGGUUUUCAGACCCCAUGUU: 0.437
UAAGACCUUUGAUCCCAGGUUCUAACUCAAAGAGGCUGACCUUCCCCCAGCUAAGAUAGCAUGAGGACGUUGUAUUCCAAUAUACGUAUGAUUGGGGCUACAAAGCUGAA: 0.83
UGUUUUUUAGAAAUAUGCCCAGAGUAAGAAGCUGUGUUGGAGCCUAAGUCCUGCAAGCUGGGUCCUGGGGGCGACCGACCUGCUUUACUUGAUGGAUAAGUUACAGAGUU: 0.443
CUCAAGAGGAUGGAGCUACUAGCUGCUGUGGUCUGCAGUCCAGGUUAAUGGAACAUUGUACAGUGAAGAGACGACCUGGCAAGUUCUUUGUAGACGUGUUUCAGUGCCUC: 0.476
CCCAUCUGUGGGCCUCAUUCUGCCAAAGCUGGACCAAGGCUAACCUUUCUAAGCUCCCUAACUUGGGCCAGAAACCAAAGCUGAGCUUUUAACUUUCUCCCUCUAUGACA: 0.364
UAGGGCAUAUGCCAAGGAGGUUCUCACCUCCCUAAAGAAGGGACUUGAAUUUUAGGGACUUUAAUUCACCCCUCCUUCAAUACAACUUUCCCCCUUCUUGUUUGCACAUG: 0.336
AACCUAUGUUUAACCAAUCUUUGCACCAAAGGACUUUUUCACCAAUUUAUUUUGUUAUUCUUCCAAAUAUUAAGUGAUUUCUAAAAGGUAAAGGGUGACCUUUUGUUUUU: 0.505

Study 2
Target: Prothrombin, mature alpha-thrombin (F2, Homo sapiens, UniProt P00734)
Technique: aptamer microarray, sandwich
Form: DNA with 2'F-ANA
Medium: in vitro
Tested at: 200 nM
Setting: whole 15-mer aptamer, many near background
Added: Cy3 exosite-II aptamer, 400 nM
Direction: higher = stronger binding
Endpoint: mean fluorescence intensity
Sequence: GGTTGGTGTGGTTGG
2'F-ANA at 1 2 3 5 6 7 10 11: 50 a.u.
2'F-ANA at 1 3 4 7 9 10 13: 55.6 a.u.
2'F-ANA at 2 3 5 7 8 12 13: 223 a.u.
2'F-ANA at 1 4 7 8 12 14: 64.2 a.u.
2'F-ANA at 2 3 5 6 9 10 12 14: 48.8 a.u.
2'F-ANA at 1 3 5 6 7 8 9 10 11 14: 55.7 a.u.
2'F-ANA at 1 3 4 5 6 7 8 10 11 12 13 14 15: 60 a.u.
2'F-ANA at 4 6 8 9 10 11 13 14: 62.6 a.u.
2'F-ANA at 2 3 4 5 6 10 15: 123 a.u.
2'F-ANA at 9 15: 551 a.u.
2'F-ANA at 2 3 7 8 9 10 12: 433 a.u.
2'F-ANA at 1 3 4 6 7 9 11 12 15: 248 a.u.
2'F-ANA at 2 3 4 5 6 7 8 10 15: 101 a.u.
2'F-ANA at 1 2 12 13: 346 a.u.
2'F-ANA at 2 5 8 9 10 12 13: 50.6 a.u.
2'F-ANA at 1 2 4 5 6 7 8 9 10 11 13 14 15: 55.8 a.u.
2'F-ANA at 2 3 4 5 6 11 12 14: 54.9 a.u.
2'F-ANA at 1 4 5 6 7 12 13: 77.4 a.u.
2'F-ANA at 3 6 9 15: 888 a.u.
2'F-ANA at 1 2 4 7 10 11 12 13 15: 54.6 a.u.
2'F-ANA at 5 7 12 13 15: 110 a.u.
2'F-ANA at 1 2 6 7 8: 162 a.u.
2'F-ANA at 2 3 6 11 12: 841 a.u.

Study 3
Target: Fragile X messenger ribonucleoprotein 1, C-terminal low-complexity region (Fmr1, Mus musculus, UniProt P35922)
Technique: RNA Bind-n-Seq
Form: RNA
Medium: in vitro
Tested at: 200 nM
Setting: whole 134-nt RNA, ends assumed
Added: 150 mM KCl
Reference: input library
Direction: higher = stronger binding
Endpoint: log2 enrichment
All sequences stand within: GGGAGUUCUACAGUCCGACGAUC … UGGAAUUCUCGGGUGUCAAGG
GUCCUGUGCUACACAUCGUAUGUACCGAAUCGGUUUUUGGGGUUUUUGGGUUUUUGGGGAAAGUAUUAUGUUACGCCGUUCGGAUCUGCA: 0.102
CUGUGCUACACAUCGUAUGUACCGAAUCGGGGUUUUUUGGGGUUUUUUGGGGUUUUUUGGGGAAAGUAUUAUGUUACGCCGUUCGGAUCU: 0.229
GUCCUGUGCUACACAUCGUAUGUACCGAAUCGGGUUUUUUUGGGAAAAAGGGAAAGGGAAAGUAUUAUGUUACGCCGUUCGGAUCUGCAC: -0.403
CCUCAAGUCCUGUGCUACACAUCGUAUGUACCGAAUCGGUGGGGUGGGGUGGAAAGUAUUAUGUUACGCCGUUCGGAUCUGCACUUCCAG: 0.427
AGUCCUGUGCUACACAUCGUAUGUACCGAAUCGGGAAAGGGUUUUUUUGGGUUUGGGAAAGUAUUAUGUUACGCCGUUCGGAUCUGCACU: 0.226
UAACUUUAGAGGAGGAUCUGAUGGAUAUGGCUGUGGACGUGGAUUUGGGGAUGGCUAUAAUGGGUAUGGAGGAGGACCUGGAGGUGGCAA: 0.368
AAGUCCUGUGCUACACAUCGUAUGUACCGAAUCGGAGGAAAAAAAGGUUUUUUUGGAAAGUAUUAUGUUACGCCGUUCGGAUCUGCACUU: -1.11
UCCUGUGCUACACAUCGUAUGUACCGAAUCAAACCCCCAAAUUUUUUUAAACCCCCAAAAAAGUAUUAUGUUACGCCGUUCGGAUCUGCA: -0.24
ACCAUGCAGGUGGGCAUCUUUGGGAAGUGGGGCAAGGGGGGGAUAGGGAGGGGGGUAACACUUUGGGAACAGGUGGUCCCAGCUCGUUUC: 1.01
CAAGUCCUGUGCUACACAUCGUAUGUACCGAAUCGGGGAAAGGGGAAAGGAAAGGGAAAGUAUUAUGUUACGCCGUUCGGAUCUGCACUU: 0.0509
ACCAUGCAGGUGGGCAUCUUUGGGAAGUGGGGCAAGGGGGGGAUAGGGAGAAAGGUAACACUUUGGGAACAGGUGGUCCCAGGUCGUUUC: 0.837
UCCUGUGCUACACAUCGUAUGUACCGAAUCGGAAAAAAAGGAAAAAAAGGGAAAAAAAGGAAAGUAUUAUGUUACGCCGUUCGGAUCUGC: -0.171
CAAGUCCUGUGCUACACAUCGUAUGUACCGAAUCGGAAAGGUUUUUGGUUUUUGGAAAGUAUUAUGUUACGCCGUUCGGAUCUGCACUUC: -0.951
UUGAUGCCCCAGAUGUGGAUGUUCAUGGCCCAGACUGGCACCUGAAGAUGCCUAAGAUGAAAAUGCCCAAGUUCAGCAUGCCUGGCUUCA: 0.289

Study 4
Target: ABI1, truncated, D143A, DHFR fusion (Arabidopsis thaliana)
Technique: DHFR PCA, deep sequencing
Medium: yeast
Setting: methotrexate growth selection, single substitutions
Added: (+)-ABA 2500 µM
Reference: wild-type fitted maximum
Direction: higher = stronger binding
Endpoint: relative binding score
Starting sequence: PYL1, truncated, DHFR fusion (Arabidopsis thaliana); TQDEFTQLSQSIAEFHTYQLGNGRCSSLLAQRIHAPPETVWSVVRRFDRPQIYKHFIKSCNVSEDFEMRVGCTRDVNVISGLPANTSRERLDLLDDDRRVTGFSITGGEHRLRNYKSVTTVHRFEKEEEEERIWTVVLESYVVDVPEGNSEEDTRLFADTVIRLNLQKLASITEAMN; partner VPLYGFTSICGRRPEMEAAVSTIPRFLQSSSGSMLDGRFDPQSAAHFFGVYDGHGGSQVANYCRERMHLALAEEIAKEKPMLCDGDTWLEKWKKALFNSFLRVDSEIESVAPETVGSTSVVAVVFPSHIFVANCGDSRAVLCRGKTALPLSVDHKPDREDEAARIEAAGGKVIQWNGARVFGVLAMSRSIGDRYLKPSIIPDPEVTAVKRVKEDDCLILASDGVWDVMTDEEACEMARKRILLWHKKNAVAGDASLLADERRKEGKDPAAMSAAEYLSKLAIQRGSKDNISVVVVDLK
T120D: 22.2%
I162W: 8.05%
D97W: 93.1%
S80V: 61.1%
N177R: 84%
L82W: 81.6%
V40Y: -17.8%
Y141N: -2.98%
T39K: 99.9%
P83L: 23.7%
F103Y: 103%
R90W: 58.1%
L8I: 103%
E151G: 96.3%
S42N: 110%
Q7E: 101%
F47C: 5.77%

Repeated from above (study 2):
2'F-ANA at 3 6 9 15: 888 a.u.
2'F-ANA at 1 2 4 7 10 11 12 13 15: 54.6 a.u.
2'F-ANA at 5 7 12 13 15: 110 a.u.
2'F-ANA at 1 2 6 7 8: 162 a.u.
